Experimental data collected from several papers.
Protocols differ between the studies behind these lines. ± gives the spread as reported.
Organism: Escherichia coli

SMILES = CC[C@H](C)[C@H](NC(=O)[C@H](CCCCN)NC(=O)[C@H](CCCCN)NC(=O)[C@H](CC(C)C)NC(=O)[C@H](CCCCN)NC(=O)[C@H](CCC(=O)O)NC(=O)[C@H](CCCCN)NC(=O)[C@@H](NC(=O)[C@H](CCCCN)NC(=O)[C@H](CC(N)=O)NC(=O)[C@H](CCCNC(=N)N)NC(=O)[C@H](Cc1ccccc1)NC(=O)[C@H](CCCCN)NC(=O)[C@H](CCCNC(=N)N)NC(=O)[C@H](CC(C)C)NC(=O)[C@H](CCCNC(=N)N)NC(=O)[C@H](CCCCN)NC(=O)[C@H](CCCNC(=N)N)NC(=O)[C@H](CC(C)C)NC(=O)[C@@H](N)CCCNC(=N)N)[C@@H](C)CC)C(=O)NCC(=O)N[C@@H](CCC(N)=O)C(=O)N[C@@H](CCCCN)C(=O)N[C@H](C(=O)N[C@@H](CCC(N)=O)C(=O)NCC(=O)N[C@@H](Cc1ccccc1)C(=O)N[C@H](C(=O)N1CCC[C@H]1C(=O)N[C@@H](CCCCN)C(=O)N[C@@H](CC(C)C)C(=O)N[C@@H](CCC(N)=O)C(=O)N1CCC[C@H]1C(=O)N[C@@H](CO)C(=O)N[C@@H](CCCCN)C(=O)N[C@@H](CCC(N)=O)C(=O)N[C@@H](CO)C(=O)O)C(C)C)[C@@H](C)CC; assay = inhibition zone; test system = CIP. J14b; measurement = lethal concentration; value = 2.17 µM
SMILES = CC(CCCOC(=O)CCC[N+](C)(C)C)C1CCC2C3CCC4CC(OC(=O)CCC[N+](C)(C)C)CCC4(C)C3CCC12C (centres unmarked); test system = ATCC 25922; scale = reference: HC50 over MIC; measurement = selectivity index; value = 205
SMILES = CN1CC(=O)N=C1N.C[C@H](CCC(=O)O)[C@H]1CC[C@H]2[C@@H]3[C@H](O)C[C@@H]4C[C@H](O)CC[C@]4(C)[C@H]3CC[C@]12C; test system = TISTR 117; setting = 1 mg per disc, 18 to 24 h, 37 °C, 6 mm disc; measurement = inhibition zone diameter; value = 7.3 ± 0.2 mm
SMILES = NCCCC[C@H](NC(=O)[C@H](CCCCN)NC(=O)[C@H](Cc1ccccc1)NC(=O)[C@@H]1CCCN1C(=O)[C@H](Cc1c[nH]c2ccccc12)NC(=O)[C@H](Cc1c[nH]c2ccccc12)NC(=O)[C@H](Cc1c[nH]c2ccccc12)NC(=O)[C@@H]1CCCN1C(=O)[C@H](Cc1ccccc1)NC(=O)[C@H](CCCCN)NC(=O)[C@@H](N)CCCCN)C(N)=O; test system = ATCC 8937, RPMI medium; setting = 24 h, 37 °C; measurement = LC99.9; value = 15 µM
SMILES = CC[C@H](C)[C@H](NC(=O)[C@H](CCCCN)NC(=O)[C@H](CCCCN)NC(=O)[C@H](CC(C)C)NC(=O)[C@H](CCCCN)NC(=O)[C@H](CCC(=O)O)NC(=O)[C@H](CCCCN)NC(=O)[C@@H](NC(=O)[C@H](CCCCN)NC(=O)[C@H](CC(N)=O)NC(=O)[C@H](CCCNC(=N)N)NC(=O)[C@H](Cc1ccccc1)NC(=O)[C@H](CCCCN)NC(=O)[C@H](CCCNC(=N)N)NC(=O)[C@H](CC(C)C)NC(=O)[C@H](CCCNC(=N)N)NC(=O)[C@H](CCCCN)NC(=O)[C@H](CCCNC(=N)N)NC(=O)[C@H](CC(C)C)NC(=O)[C@@H](N)CC(C)C)[C@@H](C)CC)C(=O)NCC(=O)N[C@@H](CCC(N)=O)C(=O)N[C@@H](CCCCN)C(=O)N[C@H](C(=O)N[C@@H](CCC(N)=O)C(=O)NCC(=O)N[C@@H](Cc1ccccc1)C(=O)N[C@H](C(=O)N1CCC[C@H]1C(=O)N[C@@H](CCCCN)C(=O)N[C@@H](CC(C)C)C(=O)N[C@H](C(=O)N1CCC[C@H]1C(=O)N[C@@H](CCCNC(=N)N)C(=O)N[C@H](C(=O)N[C@@H](CCC(=O)O)C(=O)N[C@@H](CO)C(=O)O)[C@@H](C)O)C(C)C)C(C)C)[C@@H](C)CC; assay = inhibition zone; test system = CIP. J14b; measurement = lethal concentration; value = 2.67 µM
SMILES = CCCCCC(=O)NCC(=O)N[C@@H](CC(C)C)C(=O)N[C@@H](CC(C)C)C(=O)N[C@@H](CCCCN)C(=O)N[C@@H](CCCNC(=N)N)C(=O)N[C@H](C(=O)N[C@@H](CCCCN)C(=O)N[C@H](C(=O)N[C@@H](CC(C)C)C(=O)N[C@@H](CC(C)C)C(=O)NCCCC[C@H](NC(=O)[C@H](CCCCNC(=O)[C@H](CC(C)C)NC(=O)[C@H](CC(C)C)NC(=O)[C@@H](NC(=O)[C@H](CCCCN)NC(=O)[C@@H](NC(=O)[C@H](CCCNC(=N)N)NC(=O)[C@H](CCCCN)NC(=O)[C@H](CC(C)C)NC(=O)[C@H](CC(C)C)NC(=O)CNC(=O)CCCCC)[C@@H](C)CC)[C@@H](C)O)NC(=O)[C@H](CC(C)C)NC(=O)[C@H](CC(C)C)NC(=O)[C@@H](NC(=O)[C@H](CCCCN)NC(=O)[C@@H](NC(=O)[C@H](CCCNC(=N)N)NC(=O)[C@H](CCCCN)NC(=O)[C@H](CC(C)C)NC(=O)[C@H](CC(C)C)NC(=O)CNC(=O)CCCCC)[C@@H](C)CC)[C@@H](C)O)C(N)=O)[C@@H](C)O)[C@@H](C)CC; assay = checkerboard; test system = ATCC 25922; setting = together with: rifampicin; measurement = FIC index; value = 0.25
SMILES = CC[C@H](C)[C@H](NC(=O)[C@H](CO)NC(=O)[C@H](CO)NC(=O)[C@H](Cc1ccccc1)NC(=O)CN)C(=O)N[C@@H](Cc1ccccc1)C(=O)N[C@@H](CCCNC(=N)N)C(=O)NCC(=O)N[C@H](C(=O)N[C@@H](C)C(=O)N[C@@H](CCCCN)C(=O)N[C@@H](Cc1ccccc1)C(=O)N[C@@H](C)C(=O)N[C@@H](CO)C(=O)N[C@@H](CCCCN)C(=O)NCC(=O)N[C@@H](CC(C)C)C(=O)NCC(=O)N[C@@H](CCCCN)C(N)=O)C(C)C; test system = ATCC 8739; setting = pretreated trypsin 1 mg/mL; measurement = MBC; value = > 128 µM
SMILES = CCCCCCCCCCCCCCC(=O)N[C@@H](CCCCN)C(=O)N[C@@H](CCCCN)C(=O)N[C@@H](CCCCN)C(=O)N[C@@H](CCCCN)C(=O)N[C@@H](Cc1c[nH]cn1)C(N)=O; test system = K12; measurement = MBC; value = 32 µg/mL
SMILES = CNC(=O)c1cccc(-c2ccc(O[C@H]3O[C@H](CO)[C@@H](O)[C@H](O)[C@@H]3O)cc2)c1; assay = biofilm formation, inhibitor; test system = uropathogenic UTI89; measurement = IC50; value = 1350 nM
SMILES = CCCCCCCCCC(=O)NCC(=O)N[C@@H](CC(C)C)C(=O)N[C@@H](CC(C)C)C(=O)N[C@@H](CCCCN)C(=O)N[C@@H](CCCNC(=N)N)C(=O)N[C@H](C(=O)N[C@@H](CCCCN)C(=O)N[C@H](C(=O)N[C@@H](CC(C)C)C(=O)N[C@@H](CC(C)C)C(N)=O)[C@@H](C)O)[C@@H](C)CC; assay = checkerboard; test system = ATCC 25922; setting = together with: gentamicin; measurement = FIC index; value = 0.5
SMILES = CCCCCCCCCCCCCCCCCC(=O)N[C@@H](CCCCN)C(=O)N[C@@H](CCCCN)C(=O)N[C@@H](CCCNC(=N)N)C(=O)N[C@@H](CCCCN)C(N)=O; test system = K12; measurement = MBC; value = 128 µg/mL

Some of these lines once more:
SMILES = CNC(=O)c1cccc(-c2ccc(O[C@H]3O[C@H](CO)[C@@H](O)[C@H](O)[C@@H]3O)cc2)c1; assay = biofilm formation, inhibitor; test system = uropathogenic UTI89; measurement = IC50; value = 1350 nM
